Published values gathered from unrelated publications.
Numbers after ± are the reported error.
UniProt Q13233, sequence (whole entry, looked up): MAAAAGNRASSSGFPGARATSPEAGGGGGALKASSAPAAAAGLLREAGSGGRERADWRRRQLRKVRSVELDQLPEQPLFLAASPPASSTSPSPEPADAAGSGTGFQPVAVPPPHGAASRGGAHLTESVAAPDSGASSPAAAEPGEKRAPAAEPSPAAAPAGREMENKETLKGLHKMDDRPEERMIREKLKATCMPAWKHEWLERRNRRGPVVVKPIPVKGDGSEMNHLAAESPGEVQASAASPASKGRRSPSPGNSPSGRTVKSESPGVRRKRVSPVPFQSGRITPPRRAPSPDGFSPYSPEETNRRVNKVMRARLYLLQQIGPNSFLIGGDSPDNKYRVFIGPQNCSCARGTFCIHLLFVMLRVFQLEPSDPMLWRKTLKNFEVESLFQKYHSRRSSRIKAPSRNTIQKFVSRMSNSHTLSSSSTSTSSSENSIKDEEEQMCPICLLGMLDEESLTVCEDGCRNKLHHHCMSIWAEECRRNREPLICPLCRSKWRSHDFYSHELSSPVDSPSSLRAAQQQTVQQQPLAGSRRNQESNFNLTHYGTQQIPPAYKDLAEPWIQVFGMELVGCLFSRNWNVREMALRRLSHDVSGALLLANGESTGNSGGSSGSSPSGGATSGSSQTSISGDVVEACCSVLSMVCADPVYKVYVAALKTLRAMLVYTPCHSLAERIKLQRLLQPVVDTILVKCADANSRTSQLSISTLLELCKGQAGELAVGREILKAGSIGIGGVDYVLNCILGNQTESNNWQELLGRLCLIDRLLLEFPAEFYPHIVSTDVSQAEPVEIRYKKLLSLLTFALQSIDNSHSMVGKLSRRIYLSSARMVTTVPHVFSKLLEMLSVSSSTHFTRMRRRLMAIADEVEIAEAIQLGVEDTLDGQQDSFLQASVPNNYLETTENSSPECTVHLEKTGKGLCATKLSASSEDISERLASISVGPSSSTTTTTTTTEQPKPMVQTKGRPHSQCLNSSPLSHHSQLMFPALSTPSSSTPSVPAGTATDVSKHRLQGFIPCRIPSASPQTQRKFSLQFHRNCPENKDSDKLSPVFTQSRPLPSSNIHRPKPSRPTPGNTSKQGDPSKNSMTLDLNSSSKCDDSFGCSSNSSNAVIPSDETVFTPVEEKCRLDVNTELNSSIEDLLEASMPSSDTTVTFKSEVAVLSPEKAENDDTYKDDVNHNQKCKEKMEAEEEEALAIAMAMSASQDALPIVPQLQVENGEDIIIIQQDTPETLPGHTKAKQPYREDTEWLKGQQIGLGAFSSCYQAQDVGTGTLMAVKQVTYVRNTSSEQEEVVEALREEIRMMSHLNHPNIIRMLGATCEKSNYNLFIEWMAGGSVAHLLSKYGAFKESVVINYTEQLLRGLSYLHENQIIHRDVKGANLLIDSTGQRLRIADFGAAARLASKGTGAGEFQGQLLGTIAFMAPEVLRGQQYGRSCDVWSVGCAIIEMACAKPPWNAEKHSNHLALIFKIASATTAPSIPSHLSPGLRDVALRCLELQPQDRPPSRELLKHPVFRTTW
UniProt P10635, sequence (whole entry, looked up): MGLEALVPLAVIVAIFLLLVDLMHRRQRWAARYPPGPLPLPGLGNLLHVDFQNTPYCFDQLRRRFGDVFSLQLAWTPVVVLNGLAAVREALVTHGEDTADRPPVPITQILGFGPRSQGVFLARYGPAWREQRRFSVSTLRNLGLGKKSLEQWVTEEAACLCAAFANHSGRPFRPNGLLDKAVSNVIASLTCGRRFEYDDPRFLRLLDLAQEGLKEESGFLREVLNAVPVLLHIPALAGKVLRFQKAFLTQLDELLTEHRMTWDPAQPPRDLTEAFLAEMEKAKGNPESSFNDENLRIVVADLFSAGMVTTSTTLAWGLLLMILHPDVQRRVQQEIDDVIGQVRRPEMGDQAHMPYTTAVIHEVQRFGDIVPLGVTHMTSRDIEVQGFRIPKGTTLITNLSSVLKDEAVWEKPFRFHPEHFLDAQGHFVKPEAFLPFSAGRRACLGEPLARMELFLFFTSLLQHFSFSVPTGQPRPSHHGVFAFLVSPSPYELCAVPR

With `CC[C@H](C)[C@H](NC(=O)[C@H](CCCCN)NC(=O)CNC(=O)[C@H](CC(C)C)NC(=O)[C@H](Cc1ccccc1)NC(=O)[C@H](CCCCN)NC(=O)[C@H](CO)NC(=O)[C@H](Cc1ccccc1)NC(=O)[C@H](Cc1c[nH]c2ccccc12)NC(=O)[C@H](CCC(N)=O)NC(=O)[C@@H](NC(=O)[C@H](Cc1ccccc1)NC(=O)CCCCCNC(=O)CN1CCN(CC(=O)O)CCN(CC(=O)O)CCN(CC(=O)O)CC1)C(C)C)C(=O)N[C@@H](CCC(=O)O)C(=O)N1CCC[C@H]1C(=O)N[C@@H](CC(=O)O)C(=O)N[C@H](C(=O)N[C@@H](CO)C(=O)N[C@@H](CCC(N)=O)C(=O)N[C@H](C(=O)N[C@@H](CCC(N)=O)C(=O)N[C@@H](CC(=O)O)C(=O)N1CCC[C@H]1C(=O)N[C@@H](CC(N)=O)C(=O)N[C@@H](CC(=O)O)C(=O)N[C@@H](CCC(N)=O)C(=O)N[C@@H](Cc1ccc(O)cc1)C(=O)N[C@@H](CCC(=O)O)C(=O)N1CCC[C@H]1C(=O)N[C@@H](Cc1ccccc1)C(=O)O)C(C)C)C(C)C` [copper-64 labelled] the tissue uptake was 2.49 ± 0.4 %ID/g (C57BL/6 mice, male, tumour-free, heart; 1 h).
`Cc1cc(-c2ccc3ccccc3c2)nnc1NCCN1CCN(C)CC1` gave a remaining compound of 119% (Cytochrome P450 2D6 (CYP2D6, Homo sapiens, UniProt P10635); substrate; recombinant enzyme; 100 nM, 0.5 h).
With `C[C@H](O)[C@@H](NC(=O)[C@H]1CCCN1C(=O)[C@@H](CCCCN)NC(=O)[C@@H](CO)NC(=O)[C@@H](Cc1ccc(O)cc1)NC(=O)[C@@H](CC(N)=O)NC(=O)CCOCCOCCOCCNC(=O)CN1CCN(CC(=O)O)CCN(CC(=O)O)CCN(CC(=O)O)CC1)C(=O)N[C@H](CC(=O)O)C(=O)N[C@H](CCCNC(=N)N)C(=O)N[C@H](CCC(N)=O)C(=O)N[C@H](Cc1ccc(O)cc1)C(=O)N[C@H](Cc1c[nH]cn1)C(=O)N[C@H](Cc1ccccc1)C(N)=O` [gallium-68 labelled] the tissue uptake was 0.59 ± 0.43 %ID/g (BALB/c nude mice U-87 MG tumour, liver; intravenous, 1.85 MBq, 0.5 h, radiolabelled).
`CCOP(=O)(CNC(=O)CN1CCN(CC(=O)NCP(=O)(OCC)OCC)CCN(CC(=O)NCP(=O)(OCC)OCC)CCN(CC(=O)NCP(=O)(OCC)OCC)CC1)OCC.[177Lu+3]` gave a tissue uptake of 0.018 ± 0.008 % injected dose/g (Sprague-Dawley rat, muscle; intravenous (tail vein), dose not given, 2 h).
`CCCC[C@H]1C(=O)N(C)[C@@H](CCCC)C(=O)N[C@@H](CCCNC(=O)CN2CCN(CC(=O)O)CCN(CC(=O)O)CCN(CC(=O)O)CC2)C(=O)N[C@H](C(=O)NCC(N)=O)CSCC(=O)N[C@@H](Cc2ccc(O)cc2)C(=O)N(C)[C@@H](C)C(=O)N[C@@H](CC(N)=O)C(=O)N2CCC[C@H]2C(=O)N[C@@H](Cc2c[nH]cn2)C(=O)N[C@@H](CC(C)C)C(=O)N(C)CC(=O)N[C@@H](Cc2c[nH]c3ccccc23)C(=O)N[C@@H](CO)C(=O)N[C@@H](Cc2c[nH]c3ccccc23)C(=O)N1C` [gallium-68 labelled] gave a tissue uptake of 34.4 ± 11.7 %ID/g (NOD/SCID mice, CHO-hPD-L1 xenograft, kidney; 60 min, PBS pretreatment).
The tissue uptake of `O=C([O-])CNC(=O)CN1CCN(CC(=O)NCC(=O)[O-])CCN(CC(=O)NCC(=O)[O-])CCN(CC(=O)NCC(=O)[O-])CC1.[177Lu+3]` is reported as 0.018 ± 0.005 % injected dose/g (Sprague-Dawley rat, bone; intravenous (tail vein), dose not given, 2 h).
`COc1ccccc1-c1n[nH]c2nc(NC3CCN(C(=O)Cc4ccc(F)cc4F)CC3)ncc12` has a relative abundance of 0.82 (bead binding, competition bead pull-down, measured: LINJ.36.2790; Leishmania donovani axenic amastigote extract; 10 µM; reference: vehicle).
The inhibition of `CN(C)[C@H]1C[C@@]23CC[C@@]4(O2)C(=CC[C@]2(C)[C@@H](c5ccc6ccncc6c5)CC[C@H]24)C=C3[C@@H](O)[C@@H]1O` is reported as 4.7% (MAP3K1 (Homo sapiens, UniProt Q13233); ATP probe labelling, inhibitor, KiNativ profiling; 1 µM).
The tissue uptake of `CC[C@H](C)[C@H](NC(=O)[C@H](CCCNC(=N)N)NC(=O)[C@H](CCCCN)NC(=O)[C@H](Cc1ccc(O)cc1)NC(=O)[C@H](CC(=O)O)NC(=O)[C@H](C)NC(=O)CNC(=O)CCOCCOCCOCCNC(=O)CN1CCN(CC(=O)O)CCN(CC(=O)O)CCN(CC(=O)O)CC1)C(=O)N[C@H](C(=O)N[C@H](C(=O)N[C@@H](CCCCN)C(=O)N[C@H](C(=O)N[C@@H](CC(N)=O)C(N)=O)C(C)C)C(C)C)[C@@H](C)O` [copper-64 labelled] is reported as 1.56 ± 0.269 %ID/g (ex vivo gamma counting; C57BL/6J male mice, B16-F10 tumour, thymus; intravenous, 1.85 MBq, 5 min).
`CN1Cc2cc(Cl)ccc2-n2c(nnc2C2CCN(c3cccc([18F])n3)CC2)C1` gave a tissue uptake of 0.82 ± 0.05 %ID/g (C57BL/6 mouse male, testis; intravenous, 3.7 MBq, 5 min).
With `O=C1NC2(CC2)COc2ncc(F)cc2[C@H]2COCCN2c2ccn3ncc1c3n2` the prothrombin time was 8.9 ± 0.2 s (Sprague-Dawley rat, male, plasma; oral, 10 mg/kg/day, end of recovery, 4-week repeated-dose toxicity).
For `CSCC[C@H](NC(=O)CNC(=O)[C@H](CCCCN)NC(=O)[C@H](CC(C)C)NC(=O)[C@@H]1CCCN1C(=O)[C@H](CO)NC(=O)[C@H](Cc1c[nH]cn1)NC(=O)[C@H](Cc1c[nH]c2ccccc12)NC(=O)[C@H](CCCNC(=N)N)NC(=O)[C@H](CC(C)C)NC(=O)[C@H](CCCNC(=N)N)NC(=O)[C@H](Cc1c[nH]c2ccccc12)NC(=O)[C@H](CS)NC(=O)CCCCCNC(=O)CN1CCN(CC(=O)O)CCN(CC(=O)O)CCN(CC(=O)O)CC1)C(=O)O` [copper-64 labelled], the tissue uptake was 2.18 %ID/g (ex vivo biodistribution; C57BL/6J mice bearing B16-F10 tumours, thymus; intravenous, 1.85 MBq, 2 h).
`CC(C)C[C@@H](NC(=O)[C@@H](CCCNC(=N)N)NC(=O)[C@@H](Cc1c[nH]cn1)NC(=O)[C@@H](Cc1c[nH]c2ccccc12)NC(=O)[C@@H](Cc1c[nH]cn1)NC(=O)[C@@H](Cc1ccccc1)NC(=O)[C@H](NC(=O)[C@@H](Cc1ccc(O)cc1)NC(=O)CNC(=O)CNC(=O)CCOCCOCCOCCNC(=O)CN1CCN(CC(=O)O)CCN(CC(=O)O)CC1)[C@H](C)O)C(=O)N[C@H](CC(N)=O)C(=O)N1CCC[C@@H]1C(=O)O` [gallium-68 labelled] has a tissue uptake of 0.91 ± 0.31 %ID/g (C57BL/6 mice, male, bone; intravenous, 1.85 MBq, 60 min, together with: blocking antibody).

Repeated from above:
With `O=C1NC2(CC2)COc2ncc(F)cc2[C@H]2COCCN2c2ccn3ncc1c3n2` the prothrombin time was 8.9 ± 0.2 s (Sprague-Dawley rat, male, plasma; oral, 10 mg/kg/day, end of recovery, 4-week repeated-dose toxicity).
